Assay results of several laboratories.
Protocols differ between the studies behind these lines. Values joined by “and” are separate records of one study, mostly repeats; a detail may differ.
Target: Mitogen-activated protein kinase kinase kinase 2 (MAP3K2, Homo sapiens, UniProt Q9Y2U5)

SMILES	assay	system	setting	scale	measurement	result
C=CC(=O)N1Cc2nc(-c3cc(-c4cc(Cl)cnc4Cl)c(F)cc3F)n(-c3ccncn3)c2C1	cell-free assay, inhibitor	–	1 µM	–	inhibition	-2%
O=C(Cc1ccc(OCc2ccccc2)cc1)NC1(C(=O)O)CCN(C(=O)c2ccc(-c3cccc(Cl)c3)cc2)CC1	enzyme activity, inhibitor	–	10 µM	–	activity vs control	103%
Cc1cc(NC(=O)[C@H](O)c2cc(F)cc(F)c2)ccc1-c1cnc(N)c(C(=O)NC(C)C)c1	binding, competition with immobilised ligand	–	1 µM	–	remaining binding	61%
C=CC(=O)Nc1cc(-c2nn(C3CCN(CCNC(=O)[C@H](C)CCC45CC6CC(CC(C6)C4)C5)CC3)c3ncnc(N)c23)ccc1Oc1ccccc1	inhibitor, KiNativ profiling	biochemical	2 µM	–	inhibition	18.3%
CCN1CCN(Cc2ccc(C(=O)Nc3ccc(C)c(NCc4cnc5[nH]ccc5c4OC)c3)cc2C(F)(F)F)CC1	binding, competition with immobilised ligand	–	1 µM	–	remaining binding	22%
Nc1ncc(-c2cc(-c3cnn(CC(F)(F)F)c3)ncc2F)nc1C(=O)NC1CNCC(F)C1 (stereo not drawn)	enzyme activity	–	1 µM	reference: DMSO control	remaining activity	84.5%
N[C@H]1CC[C@H](Nc2nccc(-c3cccnc3Oc3ccc(NC(=O)NC4CC4)c4ccccc34)n2)CC1	kinobead competition pulldown	HEK293/HCT116 lysate mixture	10 µM, 1 h, 4 °C	lower = stronger competition	log2 LFQ intensity	26.8 and 26.9 and 26.7
CC(C)=CC1OC(C)(C)C2C=C3C(=O)C(Cl)=CC(O)C3C3C(O)C4OC4C(=O)C132 (stereo not drawn)	cell-free assay, competition with immobilised ligand	–	10 µM	–	remaining binding	63%
CN1CC[C@@H](COc2cnc(C#N)cc2-c2ccn3nc(NC(=O)C4CC4)cc3c2)C1	enzyme activity, inhibitor	–	1 µM	–	inhibition	3%
CN1CCN(Cc2ccc(-c3ccc(CO[C@H]4CCC[C@@H]4NC(=O)c4cc(-c5cnn(C)c5)cnc4N)cc3)cc2)CC1	enzyme activity, inhibitor	–	0.1 µM	–	inhibition	-3%
NC(=O)C[C@H]1CCc2sc3ncnc(O[C@H]4CC[C@H](N5CCOCC5)CC4)c3c21	enzyme activity, inhibitor	–	10 µM	–	inhibition	4%
Cc1cnc2nc1Nc1cccc(c1)COC/C=C/COCc1cc(ccc1OCCN1CCOCC1)N2	binding	–	0.1 µM	–	remaining binding	74%

A few entries again:
SMILES	assay	system	setting	scale	measurement	result
C=CC(=O)Nc1cc(-c2nn(C3CCN(CCNC(=O)[C@H](C)CCC45CC6CC(CC(C6)C4)C5)CC3)c3ncnc(N)c23)ccc1Oc1ccccc1	inhibitor, KiNativ profiling	biochemical	2 µM	–	inhibition	18.3%
